Assay results of several laboratories.
Lines come from different studies, so protocols differ. Several values in a cell are separate wells, animals, samples, runs or records.
EPHB3: Ephrin type-B receptor 3 (EPHB3, Homo sapiens, UniProt P54753)
UniProt P54753, sequence (whole entry, unmodified, looked up): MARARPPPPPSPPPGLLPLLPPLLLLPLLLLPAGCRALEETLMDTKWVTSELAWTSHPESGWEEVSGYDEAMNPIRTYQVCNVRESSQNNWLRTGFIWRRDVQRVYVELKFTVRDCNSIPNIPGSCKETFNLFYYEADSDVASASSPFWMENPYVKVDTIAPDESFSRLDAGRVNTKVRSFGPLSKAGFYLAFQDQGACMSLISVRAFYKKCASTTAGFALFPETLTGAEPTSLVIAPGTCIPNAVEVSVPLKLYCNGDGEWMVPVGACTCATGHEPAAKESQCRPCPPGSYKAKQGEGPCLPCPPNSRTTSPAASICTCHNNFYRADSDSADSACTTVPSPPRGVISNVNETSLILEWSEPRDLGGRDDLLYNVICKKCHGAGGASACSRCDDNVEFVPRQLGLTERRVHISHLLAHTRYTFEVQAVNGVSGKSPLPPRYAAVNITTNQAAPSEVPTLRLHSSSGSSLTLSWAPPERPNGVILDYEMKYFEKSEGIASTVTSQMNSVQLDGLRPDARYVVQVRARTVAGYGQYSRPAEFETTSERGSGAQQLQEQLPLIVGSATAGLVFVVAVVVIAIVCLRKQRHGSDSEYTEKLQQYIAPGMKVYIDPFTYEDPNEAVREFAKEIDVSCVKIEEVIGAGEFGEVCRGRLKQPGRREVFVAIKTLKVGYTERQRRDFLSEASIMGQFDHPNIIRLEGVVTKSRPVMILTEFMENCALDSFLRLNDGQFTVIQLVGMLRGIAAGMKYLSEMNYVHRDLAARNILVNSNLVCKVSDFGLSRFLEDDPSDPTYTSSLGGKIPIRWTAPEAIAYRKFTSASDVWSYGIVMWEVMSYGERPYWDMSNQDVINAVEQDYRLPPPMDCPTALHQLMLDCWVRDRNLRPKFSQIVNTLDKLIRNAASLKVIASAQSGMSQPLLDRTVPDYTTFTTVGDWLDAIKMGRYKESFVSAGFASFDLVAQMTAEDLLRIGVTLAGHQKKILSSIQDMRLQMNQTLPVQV
TDP1: Tyrosyl-DNA phosphodiesterase 1 (TDP1, Homo sapiens, UniProt Q9NUW8)
UniProt Q9NUW8, sequence (whole entry, looked up): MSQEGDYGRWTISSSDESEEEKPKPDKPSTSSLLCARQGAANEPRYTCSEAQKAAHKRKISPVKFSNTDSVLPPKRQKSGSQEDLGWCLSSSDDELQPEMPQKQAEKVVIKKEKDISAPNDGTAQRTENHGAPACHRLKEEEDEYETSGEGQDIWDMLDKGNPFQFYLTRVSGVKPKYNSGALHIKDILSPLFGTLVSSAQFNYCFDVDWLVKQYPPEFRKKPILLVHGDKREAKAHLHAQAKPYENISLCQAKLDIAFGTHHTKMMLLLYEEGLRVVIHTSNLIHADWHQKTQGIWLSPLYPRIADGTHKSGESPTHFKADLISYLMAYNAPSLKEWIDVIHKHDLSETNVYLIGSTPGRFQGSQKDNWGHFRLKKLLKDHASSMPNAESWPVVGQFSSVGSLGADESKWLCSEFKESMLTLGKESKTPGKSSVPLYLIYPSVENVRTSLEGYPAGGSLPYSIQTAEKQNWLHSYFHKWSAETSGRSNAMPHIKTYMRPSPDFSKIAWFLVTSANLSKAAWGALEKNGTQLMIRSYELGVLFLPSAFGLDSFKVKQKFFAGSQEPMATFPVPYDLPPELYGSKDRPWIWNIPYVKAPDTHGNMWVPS

For C=CC(=O)Nc1cccc(-c2cnc3[nH]cc(C(=O)NC(C)(C)C)c3n2)c1, the inhibition was -2% and 4% (EPHB3; kinase activity; 0.1 µM).
The remaining activity of Cc1cccc(-c2ccc3nc(NC(=O)C4CCCCC4)nn3c2)c1 is reported as 93% (EPHB3; enzyme activity, Dundee kinase panel; 10 µM).
O=C(Cc1ccc(OCc2ccccc2)cc1)NC1(C(=O)O)CCN(C(=O)c2ccc(-c3cccc(Cl)c3)cc2)CC1: “activity vs control” 102% (EPHB3; enzyme activity, inhibitor; 10 µM).
With Cc1cccc(-c2ccc3nc(NC(=O)C4CCCO4)nn3c2)c1 (stereo not drawn) the remaining activity was 90% (EPHB3; enzyme activity, Dundee kinase panel; 10 µM).
With C=CC(=O)Nc1cc(-c2nn(C3CCN(CCNC(=O)[C@H](C)CCC45CC6CC(CC(C6)C4)C5)CC3)c3ncnc(N)c23)ccc1Oc1ccccc1 the inhibition was 2.5% (EPHB3; inhibitor, KiNativ profiling; biochemical; 2 µM).
COc1ccc(NC(=O)Nc2ccc3c(c2)C(=O)N(C(C)CO)CC(C)C(CN(C)Cc2ccc4c(c2)OCO4)O3)cc1 (stereo not drawn) has a remaining activity of 90% (EPHB3; kinase activity, KinaseProfiler; 0.03 µM, species human; baseline: control).
COc1cc(Nc2nc(C)cc(-c3cnn4nc(OC)ccc34)n2)cc(C(F)(F)F)c1 gave a remaining activity of 97% (EPHB3; inhibitor; 1 µM; baseline: control).
CNC(=O)C1CCN(c2cc(C)c(F)cc2NC(=O)c2ccc(-c3cc(O)ccc3C)c(C)c2)CC1 has a remaining binding of 2.7% (EPHB3; binding, competition with immobilised ligand; 1 µM).
CNC1C[S+]2CC[S+]3CC[S+](C1)[Ru-4]321([N]=C=S)[n]2c3ccc(OC)cc3c3c4c(c5cc(F)c[n+]1c5c32)C(=O)NC4=O (stereo not drawn) has a remaining binding of 90% (EPHB3; KinomeScan; 0.1 µM; baseline: untreated).
CCN1CCN(Cc2ccc(C(=O)Nc3ccc(C)c(NCc4cnc5[nH]ccc5c4OC)c3)cc2C(F)(F)F)CC1 gave a remaining binding of 19% (EPHB3; binding, competition with immobilised ligand; 1 µM).
Cc1cccc(O[C@H]2CCC[C@@H](C(C)CNCc3ccncc3)C2)c1 (relative stereo) has an inhibition of -3% (EPHB3; cell-free assay; 1 µM).
The remaining activity of COCC12C(=O)NC3C4(C(OC)CC1O)C1CC5(O)C(OC)C(O)C(OC(C)=O)(C1C5OC(=O)c1ccccc1)C3(O)C(OC)C24 (stereo not drawn) is reported as 111% and 116% (EPHB3; kinase activity, inhibitor, ProQinase kinase profiling; 25 µM; baseline: control).
Cc1nc(C2CCN(C(=O)OC(C)(C)C)CC2)sc1C=NOCc1ccc2nc(-c3ccccc3)c(Nc3ccc(C(=O)O)cc3)n2c1 gave an inhibition of 1.6% (TDP1; enzyme activity, inhibitor; 100 µM, unpurified compound).
The inhibition of NC(=O)C[C@H]1CCc2sc3ncnc(O[C@H]4CC[C@H](N5CCOCC5)CC4)c3c21 is reported as 6% (EPHB3; enzyme activity, inhibitor; 10 µM).
Nc1ncc2c(n1)-c1c([nH]c3ccc(C4=CCOCC4)cc13)CCC2 gave a remaining binding of 87% (EPHB3; binding, competition with immobilised ligand; 1 µM).
C=CC(=O)N1CCc2ccc(-n3c(=O)ccc4cnc5ccc(-c6cnn(C)c6)cc5c43)cc21 has a remaining binding of 100% (EPHB3; KINOMEscan; 1 µM; baseline: DMSO control).
For C=CC(=O)N1CCCC(n2c(=O)c3ncccc3n(Cc3ccc(Oc4ccccc4)cc3)c2=O)C1 (stereo not drawn), the remaining binding was 100% (EPHB3; cell-free assay, competition with immobilised ligand; 1 µM).
Cc1ccc(-c2c(/C=C(\C#N)C(=O)NC(C)C)n(CCCO)c3ncnc(N)c23)cc1 has a remaining binding of 74% (EPHB3; cell-free assay, competition with immobilised ligand; 1 µM).
For CCN1CCN(Cc2ccc(NC(=O)c3ccc(C)c(NC(=O)c4cncc(-c5cccs5)c4)c3)cc2C(F)(F)F)CC1, the remaining binding was 27% (EPHB3; binding, competition with immobilised ligand; 1 µM).
Cc1cnc2nc1Nc1cccc(c1)COC/C=C/COCc1cc(ccc1OCCN1CCOCC1)N2 gave a remaining binding of 100% (EPHB3; binding; 0.1 µM).
O=C(O)c1ccc(Nc2c(-c3ccccc3)nc3ccc(CON=Cc4ccc(-n5ccnc5)cc4)cn23)cc1 (mixture of isomers) has an inhibition of 12.9% (TDP1; enzyme activity, inhibitor; 100 µM, unpurified compound).

For quick reference, copied from above:
The inhibition of NC(=O)C[C@H]1CCc2sc3ncnc(O[C@H]4CC[C@H](N5CCOCC5)CC4)c3c21 is reported as 6% (EPHB3; enzyme activity, inhibitor; 10 µM).
Nc1ncc2c(n1)-c1c([nH]c3ccc(C4=CCOCC4)cc13)CCC2 gave a remaining binding of 87% (EPHB3; binding, competition with immobilised ligand; 1 µM).
